Experimental data of several laboratories.
Every numbered part comes from another study and shows a few of its results, in no order. Changes are numbered by the printed parent chain.

Series 1 — target: CCNA1, cyclin fold, Cln2 fusion (human); technique: yeast growth competition, sequencing; sample: yeast; notes: weak parent motif; reference: not given; direction: higher = stronger binding
Parent: CDKN1A docking peptide (human); SKACRRLFGPVDS
| Change | normalised enrichment score |
| --- | --- |
| D12K | 0.202 |
| G9C | 0.59 |
| C4Y | -0.163 |
| V11M | 0.411 |
| D12A | 0.231 |

Series 2 — technique: universal PBM; molecule type: double-stranded DNA, one strand shown; sample: in vitro; tested at: 600 nM; direction: higher = stronger binding
Target: Sal-like protein 4, full length isoform A (SALL4, Homo sapiens, UniProt Q9UJQ4, residues 1-1053)
UniProt Q9UJQ4, sequence (whole entry, looked up): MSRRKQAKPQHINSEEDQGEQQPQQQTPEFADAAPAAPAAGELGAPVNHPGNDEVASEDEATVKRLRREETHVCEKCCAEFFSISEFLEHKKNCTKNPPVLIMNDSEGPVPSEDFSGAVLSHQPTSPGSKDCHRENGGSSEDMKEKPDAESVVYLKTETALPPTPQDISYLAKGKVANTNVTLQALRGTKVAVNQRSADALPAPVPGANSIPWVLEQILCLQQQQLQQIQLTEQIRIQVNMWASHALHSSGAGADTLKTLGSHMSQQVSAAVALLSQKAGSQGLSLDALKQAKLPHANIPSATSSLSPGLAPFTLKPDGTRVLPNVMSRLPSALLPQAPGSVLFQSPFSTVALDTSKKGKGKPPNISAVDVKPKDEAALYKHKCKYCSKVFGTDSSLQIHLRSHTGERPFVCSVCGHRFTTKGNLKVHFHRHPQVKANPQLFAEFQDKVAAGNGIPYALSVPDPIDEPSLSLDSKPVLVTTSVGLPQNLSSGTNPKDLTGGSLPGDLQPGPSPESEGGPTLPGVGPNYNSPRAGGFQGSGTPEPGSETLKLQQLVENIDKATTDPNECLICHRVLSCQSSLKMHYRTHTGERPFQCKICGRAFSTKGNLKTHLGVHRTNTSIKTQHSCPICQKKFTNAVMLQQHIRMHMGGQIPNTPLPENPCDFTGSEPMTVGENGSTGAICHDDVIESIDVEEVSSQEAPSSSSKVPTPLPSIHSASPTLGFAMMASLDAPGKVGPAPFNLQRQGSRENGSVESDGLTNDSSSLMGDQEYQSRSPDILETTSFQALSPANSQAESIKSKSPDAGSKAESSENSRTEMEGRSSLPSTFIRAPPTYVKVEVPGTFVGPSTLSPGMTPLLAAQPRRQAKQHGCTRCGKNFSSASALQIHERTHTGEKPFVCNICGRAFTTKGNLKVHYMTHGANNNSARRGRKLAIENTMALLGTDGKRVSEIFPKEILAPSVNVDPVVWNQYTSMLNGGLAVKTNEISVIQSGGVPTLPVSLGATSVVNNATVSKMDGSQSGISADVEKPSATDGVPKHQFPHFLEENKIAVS
Notes: 8-mer, flanks averaged, mean of replicates
| Strand | E-score |
| --- | --- |
| TGAAATAA | 0.372 |
| ACTGGAGG | -0.144 |
| ATCAGTAG | 0.032 |
| CCCGATAG | -0.118 |
| ATGAAGGA | 0.299 |
| CGGAACGC | -0.268 |
| CTCTTGAC | -0.094 |
| CGTGTGTA | 0.149 |

Series 3 — technique: protein-binding microarray; molecule type: double-stranded DNA, one strand shown; sample: in vitro; tested at: 250 nM; notes: 60-bp whole probe; with: salmon DNA 0.4 mg/ml; reference: random background probes; direction: higher = stronger binding; shared flanks, not repeated: GCCTAGCAC … GTCTTGATTCGCTTGACGCTGCTG
Target: Interferon regulatory factor 5, full length, phosphomimetic (IRF5, Homo sapiens, UniProt Q13568-2, residues 1-514, K96S/S451D/S453D/S456D/S462D)
| Strand | log fluorescence [z-score] |
| --- | --- |
| GCCGATTTCGGGACTGGAGACGTGCTA | 2.17 |
| TTAGGAATGCTACTGCTTTAGTGCTAG | -0.572 |
| TCAACTGTGTGTTTGAGACTGTGCTAG | -0.376 |
| TTTACTTTCTGAATGCCCTCGTGCTAG | 5.25 |
| GACGATATCATTTTCGAGACGTGCTAG | 3.31 |
| GACGGACTGGGGCTGGGGACGTGCTAG | -0.327 |
| TCAAGCATTACTTTAGGACTGTGCTAG | 0.0574 |
| TTTGGACTGCTTTTCCTTTAGTGCTAG | 0.252 |

Further values, each from its own experiment
| Substance | target | test | test system | conditions | how to read | measurement | result |
| --- | --- | --- | --- | --- | --- | --- | --- |
| PhoQ, residues 284 288 289 292 302 303 SVHLDV | PhoP, residues 12 14 15 18 19 GHCSL (Escherichia coli, UniProt P23836) | Sort-seq, item: YFP reporter | E. coli | PhoQ-PhoP variant library, with: 10 µM Mg2+ | reference: high Mg2+ state, higher = stronger signaling | fold induction | 8.38 |

A few entries again (series 2):
| Strand | E-score |
| --- | --- |
| CCCGATAG | -0.118 |
| CGTGTGTA | 0.149 |
